Measured values collected from several papers.
Lines come from different studies, so protocols differ.
Organism: Staphylococcus aureus

For `CN[C@H](CC(C)C)C(=O)N[C@H]1C(=O)N[C@@H](CC(N)=O)C(=O)N[C@H]2C(=O)N[C@H]3C(=O)N[C@H](C(=O)N[C@H](C(=O)NCCCCCC(=O)N[C@H](CCCNC(=N)N)C(=O)N[C@H](CCCNC(=N)N)C(=O)N[C@H](CCCNC(=N)N)C(=O)N[C@H](CCCNC(=N)N)C(=O)N[C@H](CCCNC(=N)N)C(=O)N[C@H](CCCNC(=N)N)C(=O)N[C@H](CCCNC(=N)N)C(=O)N[C@H](CCCNC(=N)N)C(N)=O)c4cc(O)cc(O)c4-c4cc3ccc4O)[C@H](O)c3ccc(c(Cl)c3)Oc3cc2cc(c3O[C@@H]2O[C@H](CO)[C@@H](O)[C@H](O)[C@H]2O[C@H]2C[C@](C)(N)[C@H](O)[C@H](C)O2)Oc2ccc(cc2Cl)[C@H]1O`, “viable biofilm bacteria” read 8% (SYTO/PI live-dead staining; MRSA USA400 MW2; 80 µM, 5 h).
For `[Ag+].[S-]c1ccccn1.c1ccc(P(c2ccccc2)c2ccccc2)cc1.c1ccc(P(c2ccccc2)c2ccccc2)cc1`, “inhibition zone diameter” read “inactive” (MTCC 740; 50 mg/mL, 18 to 24 h).
With `Cc1cc(=O)nc(NC(=O)NCCCCCCNC(=O)NCCCCCCNC(=O)OCCOCCOCCOCCOCCOCCOCC(=O)N[C@@H](CCCCN)C(=O)N[C@@H](CCCCN)C(=O)N[C@@H](Cc2ccccc2)C(=O)N2CCC[C@H]2C(=O)N[C@@H](Cc2c[nH]c3ccccc23)C(=O)N[C@@H](Cc2c[nH]c3ccccc23)C(=O)N[C@@H](Cc2c[nH]c3ccccc23)C(=O)N2CCC[C@H]2C(=O)N[C@@H](Cc2ccccc2)C(=O)N[C@@H](CCCCN)C(=O)N[C@@H](CCCCN)C(N)=O)[nH]1` the LC99.9 was 30 µM (MRSA AMC 201, RPMI medium; 24 h, 37 °C).
`CC(C)C1=C(OC(=O)Cc2ccccc2)C(=O)C2=C(C=C[C@H]3C(C)(C)CCC[C@]23C)C1=O` has an MBC of less than 72.2 µM (CIP 106760 MRSA).
With `CC[C@H](C)[C@H](NC(=O)[C@H](CCCCN)NC(=O)[C@H](CCCCN)NC(=O)[C@H](CC(C)C)NC(=O)[C@H](CCCCN)NC(=O)[C@H](CCC(=O)O)NC(=O)[C@H](CCCCN)NC(=O)[C@@H](NC(=O)[C@H](CCCCN)NC(=O)[C@H](CC(N)=O)NC(=O)[C@H](CCCNC(=N)N)NC(=O)[C@H](Cc1ccccc1)NC(=O)[C@H](CCCCN)NC(=O)[C@H](CCCNC(=N)N)NC(=O)[C@H](CC(C)C)NC(=O)[C@H](CCCNC(=N)N)NC(=O)[C@H](CCCCN)NC(=O)[C@H](CCCNC(=N)N)NC(=O)[C@H](CC(C)C)NC(=O)[C@@H](N)CCCNC(=N)N)[C@@H](C)CC)C(=O)NCC(=O)N[C@@H](CCC(N)=O)C(=O)N[C@@H](CCCCN)C(=O)N[C@H](C(=O)N[C@@H](CCC(N)=O)C(=O)NCC(=O)N[C@@H](Cc1ccccc1)C(=O)N[C@H](C(=O)N1CCC[C@H]1C(=O)N[C@@H](CCCCN)C(=O)N[C@@H](CC(C)C)C(=O)N[C@@H](CCC(N)=O)C(=O)N1CCC[C@H]1C(=O)N[C@@H](CO)C(=O)N[C@@H](CCCCN)C(=O)N[C@@H](CCC(N)=O)C(=O)N[C@@H](CO)C(=O)O)C(C)C)[C@@H](C)CC` the lethal concentration was 2.29 µM (inhibition zone; penicillin-resistant P1383).
`c1ccc(CN2CCOCCOCCN(CCCCCCCCN3CCOCCOCCN(CCCCCCCCN4CCOCCOCCN(Cc5ccccc5)CCOCCOCC4)CCOCCOCC3)CCOCCOCC2)cc1` gave a fold enhancement of 2 fold (ethidium bromide activity; 1199B; half MIC, together with: ethidium bromide; baseline: ethidium bromide alone).
`C=Cc1cc(OC)c2c(c1)c(=O)oc1c2cc(OC)c2c(O)ccc([C@@H]3O[C@H](C)[C@H](O)[C@@](C)(O)[C@H]3O)c21` has a biofilm eradication of 55% (crystal violet; MRSA USA300; 0.5 × MIC, 24 h).
For `CC[C@H](C)[C@@H]1NC(=O)[C@H](CCC(N)=O)NC(=O)[C@H](CCCCN)NC(=O)[C@H](Cc2ccc(O)cc2)NC(=O)[C@H](CCCNC(=N)N)NC(=O)[C@H](CCCNC(=N)N)NC(=O)[C@@H]2CCCN2C(=O)[C@@H](NC(=O)[C@@H](N)Cc2ccccc2)CSSC[C@@H](C(=O)N[C@@H](CCCCN)C(=O)O)NC(=O)[C@H](CCCCN)NC(=O)[C@H]([C@@H](C)O)NC(=O)CNC(=O)[C@@H]2CCCN2C(=O)[C@H](CC(C)C)NC(=O)CNC(=O)[C@H]([C@@H](C)O)NC(=O)CNC1=O`, antibacterial activity read “inhibited” (ATCC 8530; MBC, 2 h, pH 7.4, 37 °C, together with: Escherichia coli K-235 LPS, peptide:LPS 1:5 w/w).
`CCOC(=O)c1cnc(N/N=C/c2c(-c3ccc(Br)cc3)nc3ncccn23)s1` has an inhibition zone of 15 mm (microbial growth, well diffusion; ATCC23235; 100 µg/mL).

Excerpt of the above:
With `CC[C@H](C)[C@H](NC(=O)[C@H](CCCCN)NC(=O)[C@H](CCCCN)NC(=O)[C@H](CC(C)C)NC(=O)[C@H](CCCCN)NC(=O)[C@H](CCC(=O)O)NC(=O)[C@H](CCCCN)NC(=O)[C@@H](NC(=O)[C@H](CCCCN)NC(=O)[C@H](CC(N)=O)NC(=O)[C@H](CCCNC(=N)N)NC(=O)[C@H](Cc1ccccc1)NC(=O)[C@H](CCCCN)NC(=O)[C@H](CCCNC(=N)N)NC(=O)[C@H](CC(C)C)NC(=O)[C@H](CCCNC(=N)N)NC(=O)[C@H](CCCCN)NC(=O)[C@H](CCCNC(=N)N)NC(=O)[C@H](CC(C)C)NC(=O)[C@@H](N)CCCNC(=N)N)[C@@H](C)CC)C(=O)NCC(=O)N[C@@H](CCC(N)=O)C(=O)N[C@@H](CCCCN)C(=O)N[C@H](C(=O)N[C@@H](CCC(N)=O)C(=O)NCC(=O)N[C@@H](Cc1ccccc1)C(=O)N[C@H](C(=O)N1CCC[C@H]1C(=O)N[C@@H](CCCCN)C(=O)N[C@@H](CC(C)C)C(=O)N[C@@H](CCC(N)=O)C(=O)N1CCC[C@H]1C(=O)N[C@@H](CO)C(=O)N[C@@H](CCCCN)C(=O)N[C@@H](CCC(N)=O)C(=O)N[C@@H](CO)C(=O)O)C(C)C)[C@@H](C)CC` the lethal concentration was 2.29 µM (inhibition zone; penicillin-resistant P1383).
